# Results collected from several papers.
# Protocols differ between the studies behind these lines. Values joined by “and” are separate records of one study, mostly repeats; a detail may differ. Numbers after ± are the reported error.
Compound,test,test system,setting,how to read,measurement,result
N#CCNC(=O)c1ccc(-c2ccnc(Nc3ccc(N4CCOCC4=O)cc3)n2)cc1,"population PK model, NONMEM",human,"metabolite of momelotinib, typical value, final model",,Vpm/F,45.7 L
CN1CC[C@@H](c2c(O)cc(O)c3c(=O)cc(-c4ccc(C(F)(F)F)cc4Cl)oc23)[C@@H]1CO,measured: Anemia,B-cell malignancies,"oral, 200 mg, intermittent dosing",,patients with adverse event,100%
C[C@H](NP(=O)(O)OC[C@H]1O[C@@](C#N)(c2ccc3c(N)ncnn23)[C@H](O)[C@@H]1O)C(=O)O,,human,,,plasma half-life,~1 h
C[C@]1(CO)Cc2ncn(-c3ccc(C#N)c(Cl)c3)c2C(=O)O1,,human,"concentration not given, European MRD and food-effect parts",,"disorders, nervous system, drug related",9.7%
O=C(Nc1ccccc1)C1CCN(C(=O)Oc2cccnc2)CC1,Bond-Lader VAS,healthy women,"oral, 100 mg","reference: pre-dose baseline, direction not given",change in Happy-Sad score,-18
CCN1[C@@H](C(=O)NC23CCC(C(=O)O)(CC2)CC3)[C@H](c2cccc(Cl)c2F)[C@]2(C(=O)Nc3cc(Cl)ccc32)C12CCCCC2,,patients with advanced solid tumours,"oral, 200 mg",,grade ≥3 Leukopenia incidence,50%
CC(=O)c1c(C)c2cnc(Nc3ccc(C4CCN(CCS(C)(=O)=O)CC4)cn3)nc2n(C2CCCC2)c1=O,,"human patients, plasma","oral, 100 mg twice daily, day 21 multiple doses",,AUC(0-inf),1800 ng·h/mL
C[C@@H](NC(=O)N1C(=O)[C@H](Cc2ccnc(N)c2)[C@H]1C(=O)O)C1CCCCC1,,healthy adult Chinese volunteers,"continuous intravenous infusion, 1.5 mg/kg/h, 5-day infusion, CTCAE 5.0 grading",,incidence of drug-related AEs,0%
CCCSc1ccc2nc(NC(=O)OC)[nH]c2c1,,"mouse, blood","oral, 50 mg/kg, tolerability, mean",,creatinine,25.4 µmol/L
[O-][S+]1CCc2nc(N3CCC(c4ncc(Cl)cn4)CC3)nc(NC3(CO)CCC3)c21 (stereo not drawn),measured: Nausea,healthy male humans,6 mg twice daily,,adverse event incidence,12.5%
CC(C)C[C@H](NC(=O)[C@H](CCCCN)NC(=O)OCC1c2ccccc2-c2ccccc21)C(=O)N[C@H](C(=O)N[C@@H](Cc1ccccc1)C(=O)N[C@@H](Cc1ccccc1)C(=O)N[C@@H](CCCCN)C(=O)NCC(=O)N[C@@H](Cc1ccccc1)C(=O)N[C@@H](C)C(=O)N[C@@H](Cc1c[nH]c2ccccc12)C(=O)N[C@@H](CC(N)=O)C(=O)N[C@H](C(=O)N[C@H]1CSSC[C@@H](C(=O)N[C@@H](Cc2c[nH]cn2)C(=O)N[C@@H](CCCNC(=N)N)C(=O)N[C@@H](CCCNC(=N)N)C(=O)N[C@@H](C)C(=O)N[C@@H](CC(N)=O)C(N)=O)NC(=O)[C@H](C(C)C)NC(=O)[C@H](CCCNC(=N)N)NC(=O)[C@H](C(C)C)NC(=O)CNC(=O)[C@H](CC(N)=O)NC(=O)[C@H](CCCNC(=N)N)NC(=O)[C@H](Cc2ccc(O)cc2)NC(=O)[C@H](C(C)C)NC1=O)C(C)C)C(C)C,"circular dichroism, measured: Random-coil",PBS,"80 µM, pH 7.4, added: LPS 1 µM",,secondary structure content,29%
C=CC(=O)Nc1cc(Nc2nccc(Nc3cc(Cl)c(F)cc3C(C)(C)O)n2)c(OC)cc1N1CC[C@@H](N(C)C)C1,,human,"oral, dose not given",,decreased appetite TEAE,31.4%
Cn1cncc1-c1c(F)cncc1NC(=O)c1c(N)nn2cc(F)cnc12,,human patients,"oral, up to 40 mg once daily",,grade ≥3 white blood cells decreased,0%
CCCCCOc1ccc(-c2ccc(-c3ccc(C(=O)N[C@H]4C[C@@H](O)[C@@H](OCC[N+](C)(C)C)NC(=O)[C@@H]5[C@@H](O)[C@@H](C)CN5C(=O)[C@H]([C@@H](C)O)NC(=O)[C@H]([C@H](O)[C@@H](O)c5ccc(O)cc5)NC(=O)[C@@H]5C[C@@H](O)CN5C(=O)[C@H]([C@@H](C)O)NC4=O)cc3)cc2)cc1,,"adult patients not in ICU, plasma","intravenous, 400 mg loading dose, after first dose, arithmetic mean",,Cmax,18.6 µg/mL
O=C(O)CCCOc1ccc(F)cc1-c1cc(-c2ccccc2C(F)(F)F)n(-c2ccccc2)n1,,"female Crl:CD(SD) rats, salivary glands","intravenous, 25 µg/kg, 1 d",,organ weight,0.42 ± 0.03 g
CC(C)CC(=O)OC[C@H]1O[C@@](C#N)(c2ccc3c(N)ncnn23)[C@H](O)[C@@H]1O,,monkey plasma,0.9 µM,,fraction bound,0.705
CN1CCN(S(=O)(=O)c2cc([N+](=O)[O-])ccc2N(CCOS(C)(=O)=O)CCOS(C)(=O)=O)CC1,,"NOD/SCID mouse, naive, blood","intraperitoneal, 18.8 mg/kg, week 2",,hemoglobin,150 g/L and 160 g/L and 144 g/L and 156 g/L
CC[C@H](C)[C@H](NC(=O)[C@H](Cc1ccccc1)NC(=O)[C@H](CCC(=O)O)NC(=O)[C@H](CCCNC(=N)N)NC(=O)[C@H](C)NC(=O)[C@H](C)NC(=O)[C@H](CCC(N)=O)NC(=O)[C@H](CCC(=O)O)NC(=O)[C@H](CCC(=O)O)NC(=O)[C@H](CC(C)C)NC(=O)[C@H](Cc1ccc(O)cc1)NC(=O)[C@H](CO)NC(=O)[C@H](CO)NC(=O)[C@@H](NC(=O)[C@H](CC(=O)O)NC(=O)[C@H](CO)NC(=O)[C@@H](NC(=O)[C@H](Cc1ccccc1)NC(=O)[C@@H](NC(=O)CNC(=O)[C@H](CCC(=O)O)NC(=O)[C@H](C)NC(=O)CCc1cnc[nH]1)[C@@H](C)O)[C@@H](C)O)C(C)C)C(=O)N[C@@H](C)C(=O)N[C@@H](Cc1c[nH]c2ccccc12)C(=O)N[C@@H](CC(C)C)C(=O)N[C@H](C(=O)N[C@@H](CCCNC(=N)N)C(=O)NCC(=O)N[C@@H](CCCNC(=N)N)C(=O)N[C@@H](CCCCNC(=O)COCCOCCNC(=O)COCCOCCNC(=O)CC[C@H](NC(=O)CCCCCCCCCCCCCCCCC(=O)O)C(=O)O)C(=O)NCC(=O)NCC(=O)N[C@@H](CO)C(=O)N[C@@H](CCCCNC(=O)[C@H](CCCCNC(=O)[C@H](CCCCNc1c(NCCCCCN(O)C(=O)CCC(=O)NCCCCCN(O)C(=O)CCC(=O)NCCCCCN(O)C(C)=O)c(=O)c1=O)Nc1c(NCCCCCN(O)C(=O)CCC(=O)NCCCCCN(O)C(=O)CCC(=O)NCCCCCN(O)C(C)=O)c(=O)c1=O)NC(=O)[C@H](CCCCNc1c(NCCCCCN(O)C(=O)CCC(=O)NCCCCCN(O)C(=O)CCC(=O)NCCCCCN(O)C(C)=O)c(=O)c1=O)Nc1c(NCCCCCN(O)C(=O)CCC(=O)NCCCCCN(O)C(=O)CCC(=O)NCCCCCN(O)C(C)=O)c(=O)c1=O)C(=O)O)C(C)C [zirconium-89 labelled],ex vivo gamma counting,"male Sprague-Dawley rats, colon","intravenous, 1 nmol, 24 h",,tissue uptake,0.452 %ID/g
COc1ncnn2ccc(-c3cnc4nc(C)n(Cc5nnc([C@@H](C)F)o5)c4c3)c12,,human,"oral, dose not given, grade 3",,patients with malaise,7.1%
CCCCCCCCCN(C)C,RT-S9 substrate depletion,rainbow trout,unit not given,reference: shaken over non-shaken,depletion rate increase,~2
Cn1c(-c2ccc(C(N)=O)cc2F)nnc1C(C)(C)Oc1c(F)cc(Cl)cc1F,,human,"oral, 3 mg, single ascending dose",,vessel puncture site pain,0%
C=CCNc1c(O)cc2c(O)c1C[C@@H](C)C[C@H](OC)[C@H](O)[C@@H](C)/C=C(\C)[C@H](OC(N)=O)[C@@H](OC)/C=C\C=C(/C)C(=O)N2,,"unresectable or metastatic STS, GIST, other","intravenous, 90 mg/m^2",,patients with nausea TEAE,33%
O[C@H]1CCCN[C@@H]1CCCn1cnc2c(Cl)c(Cl)ccc21,,"healthy humans, plasma","oral, 150 mg twice daily",,AUCtau,1270 ng·h/mL
CCc1ccc(CC/C=C/c2ccc3c(c2)C(=O)CC3)cc1,,"Sprague-Dawley rat, female, blood","oral, 120 mg/kg/day, 14 days",,large unstained cells,1.57%
COc1ccnc(C(=O)N[C@H]2COC(=O)[C@H](Cc3ccccc3)[C@@H](OC(=O)C(C)C)[C@H](C)OC2=O)c1OCOC(=O)C(C)C,"survival, growth, reproduction","Pimephales promelas, flow-through water","concentration not given, 32 days",,NOEC,0.37 µg/L
NC(=O)[C@H]1CCN(c2ncnc(N)c2F)C[C@@H]1N1CCC[C@@H](Nc2cc(Cl)cc(C(F)(F)F)c2)C1=O,,B-cell malignancy patients,"oral, 410 mg twice daily, dose",,grade ≥3 leukocytosis,0%
COc1ccc(-c2c(-c3ccc(C#N)c(F)c3)nc(N3CCC(N)CC3)n(C)c2=O)cc1F,measured: Cholecystitis,human patients,"oral, 60 mg, dose expansion",,serious adverse event incidence,0%
O=c1ccc2c(OCCCCOc3ccccc3)c3ccoc3cc2o1,,male and female Lewis rats,"oral gavage, 50 mg/kg daily, 6 months",,hematology and blood chemistry,no effect
O=[N+]([O-])NC1=NCCN1Cc1ccc(Cl)nc1,,cow whole milk,2000 nM,reference: milk fat over skim milk,milk fat partition ratio,0.52
CO[C@H]1C[C@@H]2CC[C@@H](C)[C@@](O)(O2)C(=O)C(=O)N2CCCC[C@H]2C(=O)O[C@H]([C@H](C)C[C@@H]2CC[C@@H](OC(=O)NCCOCCOCCOCCOCCOCCOCCOCCOCCC(=O)N3CCc4cc(Cn5nc(-c6ccc7oc(N)nc7c6)c6c(N)ncnc65)ccc4C3)[C@H](OC)C2)C[C@@H](O)[C@H](C)/C=C(\C)[C@@H](O)[C@@H](OC)C(=O)[C@H](C)C[C@H](C)/C=C/C=C/C=C/1C,"phase 1 dose escalation, measured: pneumonia",advanced solid tumour patients,"intravenous, 6 mg weekly, grade ≥3",,dose-reducing adverse events,0%
CC[C@H](C)CCCCC(=O)N[C@@H](CCN)C(=O)N[C@H](C(=O)N[C@@H](CCN)C(=O)N[C@H]1CCNC(=O)[C@H]([C@@H](C)O)NC(=O)[C@H](CCN)NC(=O)[C@H](CCN)NC(=O)[C@H](CC(C)C)NC(=O)[C@@H](Cc2ccccc2)NC(=O)[C@H](CCN)NC1=O)[C@@H](C)O,,"critically ill survivors, plasma","intravenous, 2.1 mg/kg/day, median",,Cmax steady state,7800 ng/mL
CC[C@H](C)[C@H](NC(=O)CN)C(=O)NCC(=O)N[C@@H](CCCCN)C(=O)N[C@@H](Cc1ccccc1)C(=O)N[C@@H](CC(C)C)C(=O)N[C@@H](CCCCN)C(=O)N[C@@H](CCCCN)C(=O)N[C@@H](C)C(=O)N[C@@H](CCCCN)C(=O)N[C@@H](CCCCN)C(=O)N[C@@H](Cc1ccccc1)C(=O)NCC(=O)N[C@@H](CCCCN)C(=O)N[C@@H](C)C(=O)N[C@@H](Cc1ccccc1)C(=O)N[C@H](C(=O)N[C@@H](CCCCN)C(=O)N[C@H](C(=O)N[C@@H](CC(C)C)C(=O)N[C@@H](CCCCN)C(=O)N[C@@H](CCCCN)C(N)=O)[C@@H](C)CC)C(C)C,reversed-phase UPLC,"C18 column, TFA",,,elution acetonitrile content,46.9%
Clc1ccc(Cl)c(-c2cc(Cl)ccc2Cl)c1,,"Sprague Dawley rat, thymus","intraperitoneal, 100 mg/kg",,organ weight,0.45 g
C[C@@H]1OC(=O)NN=C1c1ccc(-c2ccc(F)cc2)c(C(F)(F)F)c1,"phase I trial, measured: AST increased all grades",human patients,5 mg loading then 0.25 mg daily,,patients with adverse event,0%
CC(C)(c1ccccc1)c1cc(-n2nc3ccccc3n2)c(O)c(C(C)(C)c2ccccc2)c1,exposure assessment,"human, age 16-21 years","concentration not given, cream, 95th percentile",,"daily dermal uptake, percentile",4.2 ng/kg body weight/day
C[C@@H]1NC(=O)[C@H](CCCCNC(=O)CO/N=C/C(=O)NCCCC[C@@H]2NC(=O)[C@@H](Cc3ccccc3)NC(=O)[C@H](CC(=O)O)NC(=O)CNC(=O)[C@H](CCCNC(=N)N)NC2=O)NC(=O)CNC(=O)[C@@H]2CCCN2C(=O)[C@H](CCCCNC(=O)CO/N=C/C(=O)NCCCC[C@@H]2NC(=O)[C@@H](Cc3ccccc3)NC(=O)[C@H](CC(=O)O)NC(=O)CNC(=O)[C@H](CCCNC(=N)N)NC2=O)NC(=O)[C@H](CCCCNC(=O)CN2CCCNCCNCCCNCC2)NC(=O)[C@H](CCCCNC(=O)CO/N=C/C(=O)NCCCC[C@@H]2NC(=O)[C@@H](Cc3ccccc3)NC(=O)[C@H](CC(=O)O)NC(=O)CNC(=O)[C@H](CCCNC(=N)N)NC2=O)NC(=O)CNC(=O)[C@@H]2CCCN2C(=O)[C@H](CCCCNC(=O)CO/N=C/C(=O)NCCCC[C@@H]2NC(=O)[C@@H](Cc3ccccc3)NC(=O)[C@H](CC(=O)O)NC(=O)CNC(=O)[C@H](CCCNC(=N)N)NC2=O)NC1=O [copper-64 labelled],RP-HPLC,mouse serum,"24 h, 37 °C",,intact fraction,98.8%
CC1(C)[C@H](C(=O)OCc2cccc(Oc3ccccc3)c2)[C@@H]1C=C(Cl)Cl,measured: CYP3A5,"human, age 5 years, recombinant human CYP3A5",0.1 µM,,enzyme contribution to clearance,0.13%
C=CC(=O)N1CC[C@H](n2nc(C#Cc3cc(OC)cc(OC)c3)c3c(N)ncnc32)C1,,"human patients, all","oral, dose not given, QD regimen, adverse drug reaction",,"decreased appetite, grade ≥3",4.7%
COc1cc2c(Oc3ccc4[nH]c(C)cc4c3F)ccnc2cc1OCC1(N)CC1,,paediatric refractory sarcoma patients,10 mg,,Hematuria incidence,0%

# Some of these lines once more:
Compound,test,test system,setting,how to read,measurement,result
Cn1c(-c2ccc(C(N)=O)cc2F)nnc1C(C)(C)Oc1c(F)cc(Cl)cc1F,,human,"oral, 3 mg, single ascending dose",,vessel puncture site pain,0%
Clc1ccc(Cl)c(-c2cc(Cl)ccc2Cl)c1,,"Sprague Dawley rat, thymus","intraperitoneal, 100 mg/kg",,organ weight,0.45 g
CC[C@H](C)CCCCC(=O)N[C@@H](CCN)C(=O)N[C@H](C(=O)N[C@@H](CCN)C(=O)N[C@H]1CCNC(=O)[C@H]([C@@H](C)O)NC(=O)[C@H](CCN)NC(=O)[C@H](CCN)NC(=O)[C@H](CC(C)C)NC(=O)[C@@H](Cc2ccccc2)NC(=O)[C@H](CCN)NC1=O)[C@@H](C)O,,"critically ill survivors, plasma","intravenous, 2.1 mg/kg/day, median",,Cmax steady state,7800 ng/mL
